# Measured values collected from several papers.
# A part holds a random share of what one study measured. Changes are numbered by the printed parent chain.

# Set 1
# Target: Histone acetyltransferase KAT6A, both winged helices, GST fusion (KAT6A, Homo sapiens, UniProt Q92794, residues 1-181)
# Method: protein binding microarray
# Form: double-stranded DNA, one strand shown
# Medium: in vitro
# Concentration: not given
# Notes: 8-mer, flanks averaged, mean of 2 arrays, mostly near background
# Relative to: not given
# Reading: higher = stronger binding
# Target sequence (chain): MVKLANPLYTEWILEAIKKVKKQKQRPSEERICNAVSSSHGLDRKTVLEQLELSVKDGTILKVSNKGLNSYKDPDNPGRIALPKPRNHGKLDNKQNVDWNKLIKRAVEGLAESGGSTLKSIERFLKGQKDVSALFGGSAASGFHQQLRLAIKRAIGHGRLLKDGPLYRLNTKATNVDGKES
Strand,E-score
TAACCCTA,-0.161
ATGCGTAG,0.13
TACCAGAA,-0.0755
CCAAATCG,0.0604
AGGTCGTA,-0.00886
CTCATGAC,0.0179
AAATTTTA,-0.0188
CAGAGTGA,-0.198
AGCCGGCT,0.228
AACTTCCG,0.113
AGACGGTC,0.0501
TACACAAA,0.0291
CCTATCCC,-0.206
GCTCCTCA,-0.101
AGGAATCC,-0.0401
CATCGCAC,0.00772
CATCCATG,-0.118
CGAACTTA,-0.000305
TATTACGA,-0.00295
CACATCTC,-0.0825
ACAGTGTA,-0.137
CAAGGACC,-0.111
CAGTGACA,-0.0881
CCGGTCTC,0.0353
AAACATAT,-0.0304

# Set 2
# Target: ABI1, truncated, D143A, DHFR fusion (Arabidopsis thaliana)
# Method: DHFR PCA, deep sequencing
# Medium: yeast
# Notes: methotrexate growth selection, single substitutions
# Together with: (+)-ABA 17 µM
# Relative to: wild-type fitted maximum
# Reading: higher = stronger binding
# Starting sequence: PYL1, truncated, DHFR fusion (Arabidopsis thaliana); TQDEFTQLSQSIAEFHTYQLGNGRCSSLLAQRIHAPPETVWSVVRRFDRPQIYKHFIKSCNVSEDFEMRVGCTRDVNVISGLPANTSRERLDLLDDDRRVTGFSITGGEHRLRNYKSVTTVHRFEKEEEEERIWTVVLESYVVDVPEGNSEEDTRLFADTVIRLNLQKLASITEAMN; partner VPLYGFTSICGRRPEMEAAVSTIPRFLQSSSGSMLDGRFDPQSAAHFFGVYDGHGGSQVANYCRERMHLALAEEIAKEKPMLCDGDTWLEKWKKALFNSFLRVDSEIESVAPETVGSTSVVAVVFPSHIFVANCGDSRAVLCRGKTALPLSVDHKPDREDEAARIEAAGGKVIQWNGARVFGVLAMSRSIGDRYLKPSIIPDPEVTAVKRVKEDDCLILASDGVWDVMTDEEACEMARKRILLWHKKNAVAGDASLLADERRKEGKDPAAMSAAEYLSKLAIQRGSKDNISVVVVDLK
Substitution,relative binding score [%]
V44H,-14.7
A84Y,61.9
A35S,67.4
G81P,10.6
R163L,22.9
R123D,73.9
R45G,8.58
D153H,28.3
G148S,54
T120C,1.82
L20T,85.1
L138R,3.82

# Set 3
# Target: RING finger protein unkempt homolog, zinc fingers 1-6, GST-SBP tag (UNK, Homo sapiens, UniProt Q9C0B0, residues 30-357)
# UniProt Q9C0B0, sequence (30-357, looked up): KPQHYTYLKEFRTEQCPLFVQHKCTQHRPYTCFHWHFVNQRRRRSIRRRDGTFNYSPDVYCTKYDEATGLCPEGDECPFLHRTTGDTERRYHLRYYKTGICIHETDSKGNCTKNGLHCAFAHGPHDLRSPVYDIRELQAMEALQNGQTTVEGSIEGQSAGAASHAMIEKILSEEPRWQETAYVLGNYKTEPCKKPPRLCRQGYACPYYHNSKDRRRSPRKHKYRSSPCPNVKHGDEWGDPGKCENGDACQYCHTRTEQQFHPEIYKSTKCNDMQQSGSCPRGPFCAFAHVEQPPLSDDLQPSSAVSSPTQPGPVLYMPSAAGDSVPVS
# Method: RNA Bind-n-Seq
# Form: RNA
# Medium: in vitro
# Concentration: not given
# Notes: RNA with constant flanks, human-mouse chimeric sites, ends assumed
# Relative to: input RNA pool
# Reading: higher = stronger binding
# All sequences stand within: GGGAGUUCUACAGUCCGACGAUC … CAACAGAGGAUUGAGCAUCA
Strand,bound/input enrichment [ratio]
CCCCAAUACCAUUUGCAGGUCUGGAACUGCACUCUCUUUUUUAAAAAACAUGUAUACAUUUUAGGGCUGUAGAUUUAUUUUCCUGGUUUCUUUUCCAAUUGCUGACUUUUGAGCACAGAA,2.43
ACCAUUUUCGCGGUUCAGGCUUUGUGUUGUAUUUACUUACGGUAUUAAAUUAUUAUUCUGCUUAGCUUAUAAUAAGGAUAAUUGCAUUUAAAGAGGUUACUGAAUGUUACUCUGAAACUU,0.445
CUGAGGAUACCACUGAAGAGACCUUAAAAGAAUCAUUUGAGGGCUCUGUUCGUGCAAGAAUAGUCACCUGACCGGGAAACUGGGUCCCCAAAGGGUUUGGUUUUGUAGACUUUAAUAGUG,0.747
UUGGAAGGACCAGAGCCUAAUCAACUGAAACCACUAGUCAUACAGGCUAUGCCCACCCUAAUAGAAUUAAUGAAAGACCCCAGUGUAGUUGUUCGAGACACAACAGCGUGGACUGUGGGC,3.36
GAGCGUCUUGCCCGCACCGGGAUCAUAGUGACCACUAGUGAGGCUGUCCUCCUACAGCUGGUGGCUGACAAAGACCAUCCAAAAUUCAAGGAAAUUCAGAACCUAAUUAAGGCGAGUGCC,0.164
GAAUCCUACUCAGGCGGAUUUUGCAACACCAAGCUCAAGUAGCAAUUAUCUUAGUCACAGUAGGGUAGUUUUGGGGCUCUGUGGCCAGGGUUUUAUUCACAUGCAGGUUUGGAAAAUGUA,1.89

# Set 4
# Target: ATP-dependent RNA helicase DDX3X, helicase core (DDX3X, Homo sapiens, UniProt O00571, residues 132-607)
# UniProt O00571, sequence (132-607, looked up): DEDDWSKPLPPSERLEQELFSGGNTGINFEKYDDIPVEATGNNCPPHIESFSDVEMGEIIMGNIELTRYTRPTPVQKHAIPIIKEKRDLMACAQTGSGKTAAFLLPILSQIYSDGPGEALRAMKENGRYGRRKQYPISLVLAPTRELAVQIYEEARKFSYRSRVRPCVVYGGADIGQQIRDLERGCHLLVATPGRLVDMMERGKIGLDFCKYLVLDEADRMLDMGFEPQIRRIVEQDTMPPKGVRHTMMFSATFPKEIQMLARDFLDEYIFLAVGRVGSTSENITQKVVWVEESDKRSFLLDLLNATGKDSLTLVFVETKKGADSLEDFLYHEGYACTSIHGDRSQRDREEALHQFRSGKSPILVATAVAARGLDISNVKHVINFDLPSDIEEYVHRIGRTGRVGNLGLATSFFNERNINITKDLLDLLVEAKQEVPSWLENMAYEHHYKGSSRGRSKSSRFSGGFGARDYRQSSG
# Method: RNA Bind-n-Seq
# Form: RNA
# Medium: in vitro
# Concentration: 90 pmol
# Notes: 4-mer, random 30-nt RNA, single round
# Together with: 3 µM iPr-DMDA-PatA, 2 mM ADP, 2 mM phosphate
# Relative to: input library
# Reading: higher = stronger binding
Strand,4-mer enrichment [fold]
CGCC,0.862
AGCG,1.02
GGUG,0.862
CUGG,0.72
CCGC,0.846
GUGA,1.06
GGGG,0.909
ACGC,0.872
UACA,1.09
CAGG,0.908
ACAG,1.07
GUGC,0.715
UCAA,1.13

# Set 5
# Target: Interferon regulatory factor 5, full length, phosphomimetic (IRF5, Homo sapiens, UniProt Q13568-2, residues 1-514, K96S/S451D/S453D/S456D/S462D)
# Method: protein-binding microarray
# Form: double-stranded DNA, one strand shown
# Medium: in vitro
# Concentration: 250 nM
# Notes: 60-bp whole probe
# Together with: salmon DNA 0.4 mg/ml
# Relative to: random background probes
# Reading: higher = stronger binding
# All sequences stand within: GCCTAGCAC … GTCTTGATTCGCTTGACGCTGCTG
Strand,log fluorescence [z-score]
TCACTTCTCGAGTGCCGGACTGTGCTA,-0.131
TTAGGACTGGGGTATGGGTTAGTGCTA,-0.537
GACGATATCAGACTGGAGAGGTGCTAG,0.355
TTAGATTTCAGTTTCGGTTAGTGCTAG,10.9
TTAGGTTTCGGGACTGGGTGAGTGCTA,5.73
GACGATTCCAGTTTCGAGAAGTGCTAG,5.44
GACGGACTGGACTATCGTGACGTGCTA,-0.0761
TTTGATCTCAGTATCGATTAGTGCTAG,7.05
TCAGGACTGGACACTGGGTTAGTGCTA,-0.497
GACGGTCTCGCTCTCGGGACGTGCTAG,-0.177

# Set 6
# Target: PABPC1L2, full length, GST fusion (mouse, UniProt A0ABA7IW68)
# Method: RNAcompete
# Form: RNA
# Medium: in vitro
# Concentration: 20 nM
# Notes: 7-mer, probes averaged, single round
# Relative to: mean of 7-mers
# Reading: higher = stronger binding
# Construct (chain): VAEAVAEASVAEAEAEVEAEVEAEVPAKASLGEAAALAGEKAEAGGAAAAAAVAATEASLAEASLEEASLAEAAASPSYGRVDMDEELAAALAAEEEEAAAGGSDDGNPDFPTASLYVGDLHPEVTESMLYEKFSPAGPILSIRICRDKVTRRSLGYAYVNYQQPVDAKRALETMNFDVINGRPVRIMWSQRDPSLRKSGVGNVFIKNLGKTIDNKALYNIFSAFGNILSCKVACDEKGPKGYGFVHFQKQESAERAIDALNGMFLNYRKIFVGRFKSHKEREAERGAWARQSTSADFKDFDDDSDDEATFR
Strand,7-mer Z-score
UGGGCAG,0.202
UGCUCAC,-0.409
CAGCCCU,-0.324
GCUGAUC,-0.161
AGCCAAA,0.764
GAGCCGC,-0.293
ACUUUUG,-0.3
CUUACAU,-0.286
CCGGCUG,-0.316
AGCAUGC,-0.0373
AUGGGAG,0.263
AACUGGC,0.227
CCCCGUG,-0.44
AGCUCCG,-0.327
GACGCAC,-0.13

# Set 7
# Target: Sal-like protein 4, full length isoform B (SALL4, Homo sapiens, UniProt Q9UJQ4-2, residues 1-616)
# Method: universal PBM
# Form: double-stranded DNA, one strand shown
# Medium: in vitro
# Concentration: not given
# Notes: 8-mer, flanks averaged, mean of replicates
# Reading: higher = stronger binding
Strand,E-score
ATTATTTG,0.357
CAGTTACG,-0.0741
ACTTCGAA,0.0602
ACCCTAAC,-0.0111
ACAAATAC,0.141
ATGCCAAC,0.0724
CTGAGGCA,-0.136
AGCAAAGC,0.012
ATCCTTTG,-0.0278
CTTGCGTA,0.00916
CAGCAGCA,-0.212
ATTTGTGG,0.154
AAATCCCA,0.0999
CCTCTTTC,-0.223
CACGCCCG,-0.241
ATCTCCAG,-0.00186
AGTAATGA,0.269
GGAAGTCA,-0.117
CGCCATTA,-0.0975
CGGTTGTA,-0.147
CCCGTTAC,0.0639

# A few entries again (set 6):
Strand,7-mer Z-score
AGCCAAA,0.764
GAGCCGC,-0.293
ACUUUUG,-0.3
CUUACAU,-0.286
CCGGCUG,-0.316
AGCAUGC,-0.0373
AUGGGAG,0.263
AACUGGC,0.227
CCCCGUG,-0.44
AGCUCCG,-0.327
